# Measurements gathered from unrelated publications.
# Lines come from different studies, so protocols differ. “And” joins repeats or separate records; there may be more than shown. ± marks the error that the study gave.
# ESR2: Estrogen receptor beta (ESR2, Homo sapiens, UniProt Q92731)
# UniProt Q92731, sequence (whole entry, looked up): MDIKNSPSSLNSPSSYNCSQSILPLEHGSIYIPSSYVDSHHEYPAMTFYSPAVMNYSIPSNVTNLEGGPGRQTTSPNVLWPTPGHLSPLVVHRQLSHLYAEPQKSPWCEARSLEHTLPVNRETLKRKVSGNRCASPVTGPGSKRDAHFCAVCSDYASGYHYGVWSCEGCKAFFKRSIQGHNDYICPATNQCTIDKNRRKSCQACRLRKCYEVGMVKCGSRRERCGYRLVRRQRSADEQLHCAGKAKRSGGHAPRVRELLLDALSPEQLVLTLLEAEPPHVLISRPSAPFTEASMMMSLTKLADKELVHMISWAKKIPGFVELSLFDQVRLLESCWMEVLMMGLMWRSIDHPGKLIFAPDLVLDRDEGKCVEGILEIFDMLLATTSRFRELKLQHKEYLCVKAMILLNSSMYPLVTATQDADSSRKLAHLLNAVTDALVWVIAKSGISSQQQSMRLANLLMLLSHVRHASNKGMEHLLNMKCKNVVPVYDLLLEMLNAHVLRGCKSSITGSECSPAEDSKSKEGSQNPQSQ
# SULT2A1: Sulfotransferase 2A1 (SULT2A1, Homo sapiens, UniProt Q06520)
# UniProt Q06520, sequence (whole entry, looked up): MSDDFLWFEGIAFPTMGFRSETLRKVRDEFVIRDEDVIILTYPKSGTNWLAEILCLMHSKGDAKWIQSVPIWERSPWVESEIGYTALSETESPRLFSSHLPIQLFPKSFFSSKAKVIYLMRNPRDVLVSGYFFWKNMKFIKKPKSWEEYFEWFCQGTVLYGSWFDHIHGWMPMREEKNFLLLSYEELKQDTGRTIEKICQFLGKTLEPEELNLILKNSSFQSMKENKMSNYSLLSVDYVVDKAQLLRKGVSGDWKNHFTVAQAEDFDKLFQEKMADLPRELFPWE
# Acy3: N-acyl-aromatic-L-amino acid amidohydrolase (carboxylate-forming) (Acy3, Mus musculus, UniProt Q91XE4)
# UniProt P51575, sequence (whole entry, unmodified, looked up): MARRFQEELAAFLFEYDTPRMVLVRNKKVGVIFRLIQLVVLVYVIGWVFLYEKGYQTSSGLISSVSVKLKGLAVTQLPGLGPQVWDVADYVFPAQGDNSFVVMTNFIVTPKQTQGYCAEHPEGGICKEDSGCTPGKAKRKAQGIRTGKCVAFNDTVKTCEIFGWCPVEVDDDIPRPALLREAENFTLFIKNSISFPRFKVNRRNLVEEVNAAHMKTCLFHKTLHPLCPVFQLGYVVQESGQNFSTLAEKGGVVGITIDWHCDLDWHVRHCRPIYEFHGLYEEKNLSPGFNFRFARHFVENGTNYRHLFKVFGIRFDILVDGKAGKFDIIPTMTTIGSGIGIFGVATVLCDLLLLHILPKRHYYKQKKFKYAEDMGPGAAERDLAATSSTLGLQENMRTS
# UniProt Q91XE4, sequence (whole entry, looked up): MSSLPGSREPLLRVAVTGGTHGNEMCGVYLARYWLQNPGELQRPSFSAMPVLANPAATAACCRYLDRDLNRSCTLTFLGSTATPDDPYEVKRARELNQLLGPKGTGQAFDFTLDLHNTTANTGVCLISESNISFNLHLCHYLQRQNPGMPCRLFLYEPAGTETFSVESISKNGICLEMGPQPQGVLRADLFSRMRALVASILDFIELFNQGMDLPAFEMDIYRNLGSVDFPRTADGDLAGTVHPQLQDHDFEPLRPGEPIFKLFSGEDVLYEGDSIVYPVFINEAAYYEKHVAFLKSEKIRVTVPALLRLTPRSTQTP
# UniProt P09598, sequence (whole entry, looked up): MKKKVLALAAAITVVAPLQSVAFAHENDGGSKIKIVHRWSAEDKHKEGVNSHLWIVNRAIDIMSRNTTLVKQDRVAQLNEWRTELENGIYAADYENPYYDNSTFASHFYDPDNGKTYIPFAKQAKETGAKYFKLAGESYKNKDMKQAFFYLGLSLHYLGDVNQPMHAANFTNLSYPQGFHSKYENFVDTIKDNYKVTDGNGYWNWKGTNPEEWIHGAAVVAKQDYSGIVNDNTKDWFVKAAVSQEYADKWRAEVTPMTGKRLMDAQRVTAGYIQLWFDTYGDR
# UniProt Q7Z5P4, sequence (whole entry, looked up): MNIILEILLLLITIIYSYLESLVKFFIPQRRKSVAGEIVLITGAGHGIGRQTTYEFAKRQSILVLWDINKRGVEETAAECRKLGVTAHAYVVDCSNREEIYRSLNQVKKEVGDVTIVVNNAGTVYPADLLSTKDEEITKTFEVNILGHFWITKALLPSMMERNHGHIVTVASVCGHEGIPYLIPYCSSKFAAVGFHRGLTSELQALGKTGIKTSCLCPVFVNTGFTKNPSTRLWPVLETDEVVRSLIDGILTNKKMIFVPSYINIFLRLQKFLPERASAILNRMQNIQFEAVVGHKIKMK
# UniProt P09546, sequence (whole entry, looked up): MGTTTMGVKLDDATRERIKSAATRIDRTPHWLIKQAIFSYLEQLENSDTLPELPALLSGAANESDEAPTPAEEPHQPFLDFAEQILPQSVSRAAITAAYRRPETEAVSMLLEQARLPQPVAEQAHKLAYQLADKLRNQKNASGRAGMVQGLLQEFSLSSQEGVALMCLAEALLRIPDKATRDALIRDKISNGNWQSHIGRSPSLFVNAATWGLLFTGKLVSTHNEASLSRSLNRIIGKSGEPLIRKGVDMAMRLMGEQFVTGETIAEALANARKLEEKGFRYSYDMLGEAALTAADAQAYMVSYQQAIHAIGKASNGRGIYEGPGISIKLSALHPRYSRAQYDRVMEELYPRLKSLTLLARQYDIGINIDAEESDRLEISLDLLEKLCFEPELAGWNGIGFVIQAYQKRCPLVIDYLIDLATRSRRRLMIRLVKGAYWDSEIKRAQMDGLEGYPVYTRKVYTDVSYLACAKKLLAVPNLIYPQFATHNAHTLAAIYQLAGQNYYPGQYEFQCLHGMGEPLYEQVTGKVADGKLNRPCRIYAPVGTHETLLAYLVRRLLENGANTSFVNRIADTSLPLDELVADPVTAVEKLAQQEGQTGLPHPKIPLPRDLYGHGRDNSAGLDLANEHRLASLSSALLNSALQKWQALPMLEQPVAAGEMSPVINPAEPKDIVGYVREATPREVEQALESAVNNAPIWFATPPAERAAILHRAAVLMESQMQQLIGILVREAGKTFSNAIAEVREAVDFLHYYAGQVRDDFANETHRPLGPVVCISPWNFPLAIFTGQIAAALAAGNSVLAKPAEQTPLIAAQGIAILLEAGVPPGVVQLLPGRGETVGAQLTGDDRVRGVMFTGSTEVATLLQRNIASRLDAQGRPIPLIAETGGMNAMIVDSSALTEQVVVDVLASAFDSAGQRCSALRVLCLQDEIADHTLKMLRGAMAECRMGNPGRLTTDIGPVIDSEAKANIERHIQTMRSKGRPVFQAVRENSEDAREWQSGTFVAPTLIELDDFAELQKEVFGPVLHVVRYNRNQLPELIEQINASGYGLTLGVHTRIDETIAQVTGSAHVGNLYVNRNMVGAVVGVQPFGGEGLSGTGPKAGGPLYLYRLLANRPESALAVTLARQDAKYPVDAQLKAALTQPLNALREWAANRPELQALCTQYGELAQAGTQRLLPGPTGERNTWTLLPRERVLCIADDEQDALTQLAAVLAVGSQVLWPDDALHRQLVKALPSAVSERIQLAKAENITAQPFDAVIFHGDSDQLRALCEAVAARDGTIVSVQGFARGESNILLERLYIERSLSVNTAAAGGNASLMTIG
# UniProt P34969, sequence (whole entry, looked up): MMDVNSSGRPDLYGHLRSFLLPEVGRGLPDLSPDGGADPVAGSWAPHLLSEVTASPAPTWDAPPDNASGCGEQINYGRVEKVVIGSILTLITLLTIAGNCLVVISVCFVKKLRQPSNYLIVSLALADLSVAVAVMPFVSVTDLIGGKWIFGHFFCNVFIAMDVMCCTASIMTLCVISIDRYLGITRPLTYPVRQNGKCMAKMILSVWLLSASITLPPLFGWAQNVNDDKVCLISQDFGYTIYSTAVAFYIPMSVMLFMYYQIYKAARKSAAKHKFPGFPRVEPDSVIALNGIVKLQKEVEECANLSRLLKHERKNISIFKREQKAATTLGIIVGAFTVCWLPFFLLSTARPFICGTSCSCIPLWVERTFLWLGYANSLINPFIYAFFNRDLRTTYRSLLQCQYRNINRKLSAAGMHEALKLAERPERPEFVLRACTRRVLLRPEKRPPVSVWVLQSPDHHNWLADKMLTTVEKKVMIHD
Compound,target or system,assay,system,conditions,measurement,result
COc1ccc(-c2oc3c(CC=C(C)C)c(O[C@@H]4O[C@H](CO)[C@@H](O)[C@H](O)[C@H]4O)cc(O)c3c(=O)c2O[C@@H]2O[C@@H](C)[C@H](O)[C@@H](O)[C@H]2O[C@@H]2OC[C@@H](O)[C@H](O)[C@H]2O)cc1,ESR2,"array formation, agonist",GFP-ERβ PRL-HeLa,1 h,EC50,4.71 µM
S=C(S)OC1CC2CC1C1CCCC21 (stereo not shown),"Phospholipase C (Bacillus cereus, UniProt P09598)","inhibitor, continuous fluorescence",,"pH 7.4, 37 °C, mole fraction 0.003, with: Pyro-PtdEtn-BHQ, in PtdCho vesicles, egg",Ki,51 µM
Oc1c(Cl)cc(-c2ccccc2)cc1Cl,SULT2A1,substrate,,"pH 7.0, 37 °C, with: PAPS 200 µM",Ki,221 ± 56.4 µM
O=c1ccoc2cc(O)ccc12,ESR2,"array formation, agonist",GFP-ERβ PRL-HeLa,1 h,EC50,5.22 µM
O=C(O)[C@@H]1CCC=N1,"putA (Escherichia coli, UniProt P09546)",product competitive inhibitor,,"pH 7.4, 20 °C, DL form, L-isomer concentration, with: CoQ1 co-substrate, proline varied",Ki,640 ± 40 µM
O=C(Nc1nc2cccc(-c3ccc(CN4CCS(=O)(=O)CC4)cc3)n2n1)C1CC1,,item: body temperature increased,human rheumatoid arthritis patients,"oral, 30 mg once daily, 4 weeks, regardless of relatedness",treatment-emergent adverse events,0%
Cc1nn(-c2ccc(F)cc2)c(=O)c2nocc12,NMDA receptor,"binding, radioligand displacement",,with: [3H]MK-801,Ki,> 10 µM
CC12CC3CC(C)(C1)CC(N)(C3)C2,Acy3,,,,Ki,> 10000 µM
N#Cc1ccc2c(c1)[C@H]1CCCN(C(=O)c3ccc4[nH]cnc4c3)[C@H]1C2,,,human,"80 mg, end of trial",mean ACTH level,6.6 pmol/L
CC(C)Cc1ccc(C(C)C(=O)O)cc1 (stereo not shown),Acy3,,,,Ki,40 µM
O=C(O)CC[C@H](NC(=O)N[C@@H](CCCCNC(=O)[C@H](Cc1ccc2ccccc2c1)NC(=O)CCCCCNC(=O)CN1CCN(CC(=O)O)CCN(CC(=O)O)CCN(CC(=O)O)CC1)C(=O)O)C(=O)O [gallium-68 labelled],,PET/CT,"mouse, 22Rv1 xenograft, muscle","intravenous, 3.7 MBq, 8 h",SUVmean,0.05 ± 0.004 SUV
CNC(=O)[C@@]12C[C@@H]1[C@@H](n1cnc3c(NC)nc(C#C[c-]4cccc4)nc31)[C@H](O)[C@@H]2O.[Fe+2].c1cc[cH-]c1,"5-hydroxytryptamine receptor 7 (HTR7, Homo sapiens, UniProt P34969)",radioligand binding (PDSP),,,Ki,0.898 µM
Oc1c(Cl)cc(-c2cccc(F)c2)cc1Cl,SULT2A1,substrate,,"pH 7.0, 37 °C, with: PAPS 200 µM",Ki,219 ± 70.1 µM
Cc1nn(-c2cc(C(F)(F)F)cc(C(F)(F)F)c2)c(=O)c2nocc12,NMDA receptor,"binding, radioligand displacement",,with: [3H]MK-801,Ki,> 10 µM
Cn1cc2c(C(=O)O)ccc(NS(=O)(=O)c3ccc(OCC4CCC4)c(Cl)c3)c2n1,"17-beta-hydroxysteroid dehydrogenase 13, isoform D (Homo sapiens, UniProt Q7Z5P4)",,,,Ki,0.012 µM
Cc1nn(-c2ccccc2)c(=O)c2nocc12,NMDA receptor,"binding, radioligand displacement",,with: [3H]MK-801,Ki,> 10 µM
Nc1ncnc2c1ncn2[C@@H]1O[C@H](COP(=O)(O)CP(=O)(O)OP(=O)(O)O)[C@@H](O)[C@H]1O,"P2X purinoceptor 1 (P2RX1, Homo sapiens, UniProt P51575, E122A)",saturation binding,HEK293,79 nM,specific binding,560 CCPM and 820 CCPM and 580 CCPM
Cc1nn(-c2cccc([N+](=O)[O-])c2)c(=O)c2nocc12,NMDA receptor,"binding, radioligand displacement",,with: [3H]MK-801,Ki,> 10 µM
Oc1c(Cl)cc(-c2ccccc2F)cc1Cl,SULT2A1,substrate,,"pH 7.0, 37 °C, with: PAPS 200 µM",Ki,77.5 ± 17.9 µM

# For quick reference, copied from above:
Compound,target or system,assay,system,conditions,measurement,result
COc1ccc(-c2oc3c(CC=C(C)C)c(O[C@@H]4O[C@H](CO)[C@@H](O)[C@H](O)[C@H]4O)cc(O)c3c(=O)c2O[C@@H]2O[C@@H](C)[C@H](O)[C@@H](O)[C@H]2O[C@@H]2OC[C@@H](O)[C@H](O)[C@H]2O)cc1,ESR2,"array formation, agonist",GFP-ERβ PRL-HeLa,1 h,EC50,4.71 µM
Oc1c(Cl)cc(-c2cccc(F)c2)cc1Cl,SULT2A1,substrate,,"pH 7.0, 37 °C, with: PAPS 200 µM",Ki,219 ± 70.1 µM
